Measurements of several laboratories.
Compare with care: the assays were run in different laboratories. ± gives the spread as reported.

| Structure (SMILES) | tested on | test | system | setting | scale | EC50 [nM] |
| --- | --- | --- | --- | --- | --- | --- |
| COc1cc([C@@H]2c3cc4c(cc3[C@H](CC(C)C)[C@H]3COC(=O)[C@H]23)OCO4)cc(OC)c1OC | Leishmania infantum |  | promastigote, iRFP |  |  | 13800 ± 200 |
| COC(=O)[C@@]1(C)C=C(C(=O)OCc2cccc(C(=O)Nc3ccc(Nc4nccc(-c5cccnc5)n4)c(C)c3)c2)C(=O)CC1 | SH-SY5Y MKK7-activated cells | c-Jun Ser63 phosphorylation, inhibitor, HTRF |  | 6 h, added: doxycycline |  | 644 ± 110 |
| Cc1cc(OCCCc2c3n(c4c(-c5c(C)nn(C)c5C)c(Cl)ccc24)CCCN(c2cc(C(=O)O)cc4c2ccn4C)C3=O)cc(C)c1Cl | K562 | caspase-3/7 activation |  | 3 h, 5% FBS |  | > 50000 |
| COc1ccc(C2(CNC(=O)[C@H](Cc3c[nH]c4ccccc34)NC(=O)Nc3ccc([N+](=O)[O-])cc3)CCCCC2)cc1 | human neutrophils | Ca2+ mobilization, agonist |  | added: probenecid 2.5 mM |  | 5600 ± 1600 |
| COc1ccc2nc(SCC(=O)Nc3ccc(OC(F)(F)F)cc3)[nH]c2c1 | human neutrophils | calcium mobilization, agonist |  |  |  | 3000 |
| O=C(Nc1ccc([N+](=O)[O-])cc1)N[C@@H](Cc1c[nH]c2ccccc12)C(=O)NCC1(c2ccccc2)CCCCC1 | human neutrophils | Ca2+ mobilization, agonist |  | added: probenecid 2.5 mM |  | 50 ± 20 |
| Cn1nc(-c2ccc(CC(=O)Nc3cc(C(C)(C)C)on3)cc2)c2c(N)ncnc21 | LC-2/ad (CCDC6-RET fusion) | cell viability |  |  |  | 24 ± 20 |
| COc1ccc2nc(SCC(=O)Nc3ccc(S(N)(=O)=O)cc3)[nH]c2c1 | human neutrophils | calcium mobilization, agonist |  |  |  | 17200 |
| COc1ccc(NC(=O)N[C@@H](Cc2ccc(O)cc2)C(=O)NCC2(c3ccccc3)CC2)cc1 | N9 mouse microglia | MTT |  | 24 h, resting conditions |  | > 100000 |
| COC(=O)[C@@H]1C(c2nc3cc(Cl)ccc3o2)=Cc2cc3c(cc2[C@H]1c1cc(OC)c(OC)c(OC)c1)OCO3 | Leishmania infantum |  | promastigote, iRFP |  |  | 13900 ± 2800 |
| COc1ccc(NC(=O)N[C@H](Cc2ccc(C#N)cc2)C(=O)NCC2(c3ccc(O)cc3)CC2)cc1 | N9 mouse microglia | MTT |  | 24 h, resting conditions |  | > 100000 |
| O=C(Nc1ccc([N+](=O)[O-])cc1)N[C@@H](Cc1c[nH]c2ccccc12)C(=O)NCC1(c2ccccc2)CC1 | human neutrophils | chemotaxis, agonist |  |  |  | 22300 ± 5400 |
| C=CC(=O)Nc1cccc(N(C(=O)OCc2ccc(F)cc2)c2ccnc(Nc3ccn(C)n3)n2)c1 | Ba/F3 EGFR D770_N771insSVD | cell growth |  |  | above 10 µM not active | 37 ± 3.4 |
| Cc1cc(NC(=O)c2cccc(NC(=O)C3=CC(C)(C)CC3=O)c2)ccc1Nc1nccc(-c2cccnc2)n1 | SH-SY5Y MKK7-activated cells | c-Jun Ser63 phosphorylation, inhibitor, HTRF |  | 6 h, added: doxycycline |  | 378 ± 108 |
| O=C(Nc1ccc([N+](=O)[O-])cc1)N[C@H](Cc1c[nH]c2ccccc12)C(=O)NCC1(c2ccccn2)CCCCC1 | human neutrophils | Ca2+ mobilization, agonist |  | added: probenecid 2.5 mM |  | 460 |
| COCCCn1nc(-c2ccc(CC(=O)Nc3cc(C(C)(C)C)on3)cc2)c2c(N)ncnc21 | LC-2/ad (CCDC6-RET fusion) | cell viability |  |  |  | 16 |
| CCN1CCN(Cc2ccc(Nc3ncc4c(n3)Sc3ccccc3C(=O)N4C)cc2C(F)(F)F)CC1 | HT-29 | cell growth, CellTiter-Glo |  | 96 h |  | 3800 |

A few entries again:
| Structure (SMILES) | tested on | test | system | setting | scale | EC50 [nM] |
| --- | --- | --- | --- | --- | --- | --- |
| Cc1cc(NC(=O)c2cccc(NC(=O)C3=CC(C)(C)CC3=O)c2)ccc1Nc1nccc(-c2cccnc2)n1 | SH-SY5Y MKK7-activated cells | c-Jun Ser63 phosphorylation, inhibitor, HTRF |  | 6 h, added: doxycycline |  | 378 ± 108 |
